Assay results gathered from unrelated publications.
Numbers after ± are the reported error. Converted amounts (≈) assume the structure as drawn.
Organism: Mycobacterium tuberculosis

Structure (SMILES)	assay	system	setting	scale	quantity	result
NS(=O)(=O)N=c1[nH]c2ccc(Cl)cc2c(=O)n1Cc1cccnc1	–	PptT conditional knockdown	–	–	MIC90	> 100 µM
CNC(=O)c1cc(C)ccc1OCCc1cc(F)cc(F)c1	–	H37Rv-LP	–	relative to: HepG2 CC50 over Mtb IC90	selectivity index	86
Nc1c(C(=O)N2CC(F)(F)C2)sc2ncccc12	growth inhibition	H37Rv LepB under-expressing	–	–	IC50	> 100 µM
NC(=S)c1cncc(Cn2c(=S)[nH]c3ccc(Cl)cc3c2=O)c1	–	PptT conditional knockdown	–	–	MIC90	0.68 µM (≈ 0.247 µg/mL)
Cc1ccc(OC2CC(c3ccccc3)C2)c(C(N)=O)c1 (centres unmarked)	growth	H37Rv-LP	120 h	–	IC90	66 ± 12 µM
CO[C@H]1/C=C/O[C@@]2(C)Oc3c(C)c(O)c4c(O)c(c(/C=N/N5CCN(C)CC5)c(O)c4c3C2=O)NC(=O)/C(C)=C\C=C\[C@H](C)[C@H](O)[C@@H](C)[C@@H](O)[C@@H](C)[C@H](OC(C)=O)[C@@H]1C	–	THP-1 macrophages, H37Rv-GFP	96 h	–	IC80	0.11 µM
COC1CN(C(=O)c2sc3ncccc3c2N)C1	growth inhibition	H37Rv LepB under-expressing	–	–	IC50	> 100 µM
N#Cc1cncc(Cn2c(=S)[nH]c3cc(CO)c(Cl)cc3c2=O)c1	–	PptT conditional knockdown	–	–	MIC90	0.292 µM (≈ 0.105 µg/mL)
Cc1nc(OCCc2cc(F)cc(F)c2)c(C(=O)NC2CCCC2)s1	–	H37Rv-LP	–	relative to: HepG2 CC50 over Mtb IC90	selectivity index	0.3
CO[C@H]1/C=C/O[C@@]2(C)Oc3c(C)c(O)c4c(O)c(c(/C=N/N5CCN(C)CC5)c(O)c4c3C2=O)NC(=O)/C(C)=C\C=C\[C@H](C)[C@H](O)[C@@H](C)[C@@H](O)[C@@H](C)[C@H](OC(C)=O)[C@@H]1C	resazurin reduction	H37Rv mc2-6206 wild type	–	–	MIC80	0.076 µM (≈ 0.0625 µg/mL)
CC(C)(O)c1ccc(OCCc2cccc(F)c2)c(C(N)=O)c1	growth	H37Rv-LP	120 h	–	IC90	6.7 ± 0.93 µM
COc1ccc(-c2cc(C(F)(F)F)c3cc(C(=O)NC(C)c4ccccc4)sc3n2)cc1 (centres unmarked)	growth inhibition	H37Rv LepB under-expressing	–	–	IC50	1.5 ± 0.7 µM
NC(=O)c1cc(-c2ccsc2)ccc1OCCc1cccc(F)c1	growth	H37Rv-LP	120 h	–	IC90	0.35 ± 0.19 µM
O=c1c2c(Cl)cccc2[nH]c(=S)n1Cc1cccnc1	–	PptT conditional knockdown	–	–	MIC90	> 100 µM
Nc1c(C(=O)NCc2ccc(F)cc2)sc2nc(-c3ccccc3)ccc12	growth inhibition	H37Rv LepB under-expressing	–	–	IC50	> 100 µM
N#Cc1ccc2[nH]c(=S)n(Cc3cccnc3)c(=O)c2c1	–	PptT conditional knockdown	–	–	MIC90	1.48 µM (≈ 0.436 µg/mL)
COc1ccc(-c2cc(C(F)(F)F)c3c(N)c(C(=O)Nc4ccc(C)c(C)c4)sc3n2)cc1	–	H37Rv wild type	–	relative to: HepG2 IC50 over M. tuberculosis IC90	selectivity index	< 1
Cc1c(-c2ccc(N3CCCCC3)cc2)[nH]c2ccccc2c1=O	time-kill	H37Rv	concentration not given, 7 days	–	kill rate	0.05 h⁻¹
Cc1ccc(OCCc2cc(F)cc(F)c2)c(C(=O)NCC2CC2)c1	–	H37Rv-LP	–	relative to: HepG2 CC50 over Mtb IC90	selectivity index	2
COc1ccc(-c2cc(C(F)(F)F)c3c(N)c(C(=O)N4CCCC4)sc3n2)cc1	growth inhibition	H37Rv LepB under-expressing	–	–	IC50	> 50 µM

Repeated from above:
Structure (SMILES)	assay	system	setting	scale	quantity	result
Cc1c(-c2ccc(N3CCCCC3)cc2)[nH]c2ccccc2c1=O	time-kill	H37Rv	concentration not given, 7 days	–	kill rate	0.05 h⁻¹
Cc1ccc(OCCc2cc(F)cc(F)c2)c(C(=O)NCC2CC2)c1	–	H37Rv-LP	–	relative to: HepG2 CC50 over Mtb IC90	selectivity index	2
